Assay results of several laboratories.
Each numbered part is a random draw from the data of one study; scales do not carry over between parts.
Chain of UniProt P62256 (whole entry, looked up): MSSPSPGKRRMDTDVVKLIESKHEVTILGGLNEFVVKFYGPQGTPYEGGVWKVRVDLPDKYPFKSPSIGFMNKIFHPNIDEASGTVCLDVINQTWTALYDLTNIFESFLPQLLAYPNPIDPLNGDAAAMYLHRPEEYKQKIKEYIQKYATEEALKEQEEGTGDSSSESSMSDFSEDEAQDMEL
Chain of UniProt P60604 (whole entry, looked up): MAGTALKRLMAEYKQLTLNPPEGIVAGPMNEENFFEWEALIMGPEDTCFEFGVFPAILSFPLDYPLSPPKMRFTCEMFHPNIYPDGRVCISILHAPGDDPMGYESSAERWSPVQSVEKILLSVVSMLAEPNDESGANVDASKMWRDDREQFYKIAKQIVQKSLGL
Chain of UniProt P61088 (whole entry, looked up): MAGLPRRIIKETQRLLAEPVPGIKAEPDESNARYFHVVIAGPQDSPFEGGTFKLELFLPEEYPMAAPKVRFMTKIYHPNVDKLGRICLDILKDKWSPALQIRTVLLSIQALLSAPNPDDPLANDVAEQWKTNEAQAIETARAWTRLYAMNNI
Chain of UniProt O14933 (whole entry, looked up): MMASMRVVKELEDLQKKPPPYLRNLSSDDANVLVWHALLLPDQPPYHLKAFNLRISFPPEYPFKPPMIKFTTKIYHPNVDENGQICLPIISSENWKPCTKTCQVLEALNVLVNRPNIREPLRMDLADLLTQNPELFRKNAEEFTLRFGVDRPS
Chain of UniProt Q5VVX9 (whole entry, looked up): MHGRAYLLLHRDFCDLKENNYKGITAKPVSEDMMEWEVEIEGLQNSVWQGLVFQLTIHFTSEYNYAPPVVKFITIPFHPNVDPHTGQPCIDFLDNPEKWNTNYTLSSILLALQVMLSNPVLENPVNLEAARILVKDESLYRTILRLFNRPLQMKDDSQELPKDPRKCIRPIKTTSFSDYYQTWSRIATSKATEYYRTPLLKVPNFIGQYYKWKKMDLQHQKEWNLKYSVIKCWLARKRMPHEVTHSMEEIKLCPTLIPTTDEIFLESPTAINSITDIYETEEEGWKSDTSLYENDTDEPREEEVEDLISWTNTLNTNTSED
Chain of UniProt Q96LR5 (whole entry, looked up): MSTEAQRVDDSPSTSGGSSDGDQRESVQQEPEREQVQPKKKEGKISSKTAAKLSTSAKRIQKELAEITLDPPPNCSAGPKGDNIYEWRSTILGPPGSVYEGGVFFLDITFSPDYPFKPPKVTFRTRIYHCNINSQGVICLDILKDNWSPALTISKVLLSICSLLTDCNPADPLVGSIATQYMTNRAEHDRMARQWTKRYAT
Chain of UniProt Q15819 (whole entry, looked up): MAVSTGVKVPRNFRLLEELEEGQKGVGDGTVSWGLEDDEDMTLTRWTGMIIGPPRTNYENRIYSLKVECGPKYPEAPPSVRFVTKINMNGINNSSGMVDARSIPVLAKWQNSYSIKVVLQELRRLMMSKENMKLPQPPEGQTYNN
Chain of UniProt P51965 (whole entry, looked up): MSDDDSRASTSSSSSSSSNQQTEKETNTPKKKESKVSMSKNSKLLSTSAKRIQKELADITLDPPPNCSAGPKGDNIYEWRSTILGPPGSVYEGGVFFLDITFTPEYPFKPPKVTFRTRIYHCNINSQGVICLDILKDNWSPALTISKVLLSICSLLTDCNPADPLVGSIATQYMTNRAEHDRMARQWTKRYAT
Chain of UniProt Q13404 (whole entry, looked up): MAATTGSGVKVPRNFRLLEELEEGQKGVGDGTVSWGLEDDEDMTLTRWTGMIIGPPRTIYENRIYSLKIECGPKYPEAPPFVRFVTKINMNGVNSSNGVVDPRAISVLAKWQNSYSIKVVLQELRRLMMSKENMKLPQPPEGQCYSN
Chain of UniProt Q8WVN8 (whole entry, looked up): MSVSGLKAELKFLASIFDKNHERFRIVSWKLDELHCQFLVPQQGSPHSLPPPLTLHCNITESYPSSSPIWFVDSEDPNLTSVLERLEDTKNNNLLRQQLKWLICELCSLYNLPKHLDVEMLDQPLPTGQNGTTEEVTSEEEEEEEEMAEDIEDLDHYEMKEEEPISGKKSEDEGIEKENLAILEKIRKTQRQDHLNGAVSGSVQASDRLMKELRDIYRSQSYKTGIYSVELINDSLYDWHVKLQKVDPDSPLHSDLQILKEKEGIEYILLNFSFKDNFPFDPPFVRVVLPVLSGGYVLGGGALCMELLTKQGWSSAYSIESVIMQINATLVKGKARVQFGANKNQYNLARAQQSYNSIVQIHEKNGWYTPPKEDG
Chain of UniProt P49427 (whole entry, looked up): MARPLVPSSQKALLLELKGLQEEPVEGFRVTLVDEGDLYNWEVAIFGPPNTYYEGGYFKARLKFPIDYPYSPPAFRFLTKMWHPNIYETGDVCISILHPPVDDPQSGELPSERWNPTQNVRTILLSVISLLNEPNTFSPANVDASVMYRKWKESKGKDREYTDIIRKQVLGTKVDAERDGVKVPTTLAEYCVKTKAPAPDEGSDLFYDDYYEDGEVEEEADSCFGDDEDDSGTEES

Set 1
Target: Interferon regulatory factor 7, full length, phosphomimetic (IRF7, Homo sapiens, UniProt Q92985, residues 1-503, S101K/S471D/S472D/S475D/S476D/S477D/S483D/S484D/S487D)
Method: protein-binding microarray
Form: double-stranded DNA, one strand shown
Medium: in vitro
Concentration: 250 nM
Setting: 60-bp whole probe
Together with: salmon DNA 0.4 mg/ml
Baseline: random background probes
Reading: higher = stronger binding
Constant ends, left off below: GCCTAGCAC … GTCTTGATTCGCTTGACGCTGCTG
Target sequence (chain): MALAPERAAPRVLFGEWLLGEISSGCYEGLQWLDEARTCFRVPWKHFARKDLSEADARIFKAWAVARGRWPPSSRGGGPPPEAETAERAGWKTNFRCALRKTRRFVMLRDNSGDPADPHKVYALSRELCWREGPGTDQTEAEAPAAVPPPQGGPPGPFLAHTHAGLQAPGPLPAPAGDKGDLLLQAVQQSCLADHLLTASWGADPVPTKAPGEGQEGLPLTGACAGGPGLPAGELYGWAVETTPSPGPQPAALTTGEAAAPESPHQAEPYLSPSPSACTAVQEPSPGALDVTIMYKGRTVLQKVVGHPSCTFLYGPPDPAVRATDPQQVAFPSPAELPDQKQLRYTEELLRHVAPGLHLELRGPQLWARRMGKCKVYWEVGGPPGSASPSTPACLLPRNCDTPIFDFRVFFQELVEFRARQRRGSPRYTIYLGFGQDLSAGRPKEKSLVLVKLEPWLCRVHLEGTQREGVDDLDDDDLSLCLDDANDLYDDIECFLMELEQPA
Strand	log fluorescence [z-score]
TCTCTTTCCACTTGTCTTTTCGTGCTA	2.81
GGCACCCAAGCTCTTGTTTGGTGCTAG	-0.957
GATGGTCTCCTTCTCCTGACGTGCTAG	-0.0296
GACGATATCAGGACTGGAGACGTGCTA	-0.183
TCAGATTTCCTTCACCCACTGTGCTAG	0.75
TCAGGTATCGGACTGGGTTAGTGCTAG	0.31
TTCGGTATCGGGTATCGGTTAGTGCTA	1.52
TCAGAAATCAGTATGTTACTGTGCTAG	-0.382
TAAGAAAAGCCACCAGGACCGTGCTAG	-0.601
GACGAACTGGGGACTGAAGACGTGCTA	-0.597
TTTGGTTTCGGGACTGGGTTAGTGCTA	4.93
GACGGACTTGACTATCGGGACGTGCTA	-0.5
TCAGCTTTCCTTCTTGAACTGTGCTAG	0.707
TTAGGTATCGGGGCTGGGTTAGTGCTA	-0.135
GACGCACTGGGGTATCGAGACGTGCTA	-0.469
TGGTTTTTACTTTCTGAATGGTGCTAG	2.61
TCATTTCCAATTCTCTTACTGTGCTAG	2.67
TTAGGTTGCCTTTCCCTTTAGTGCTAG	0.515
TCAGAACTGAGTTTCGATTAGTGCTAG	7.99
GACGGACTGGACACTGGAGACGTGCTA	-0.942
TTAGATATCGGGTTACGATTAGTGCTA	0.577
TTAGGGATCGGTCTCGGTTAGTGCTAG	1.66

Set 2
Target: RNA binding protein fox-1 homolog 2, RRM domain, GST-SBP tag (RBFOX2, Homo sapiens, UniProt O43251-10, residues 100-194)
Method: RNA Bind-n-Seq
Form: RNA
Medium: in vitro
Concentration: 365 nM
Setting: natural RNA segment, single round, ends assumed
Baseline: no-protein control
Reading: higher = stronger binding
Residues (chain): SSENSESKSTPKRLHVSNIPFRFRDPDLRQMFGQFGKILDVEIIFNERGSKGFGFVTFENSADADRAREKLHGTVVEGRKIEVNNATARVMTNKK
Strand	RBNS enrichment (R)
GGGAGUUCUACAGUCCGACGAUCCAGGUCUUGGCCCUAGAGGAUUGAGAUGUUUUUCUAAAUCUUAGAACUAUUUUUGGAUAAAUUAUAUAUUUUCCUUCCUAGUAGAAGUGUUACUGCCUGUAACUAGCUCAUGGAAUUCUCGGGUGCCAA	0.478
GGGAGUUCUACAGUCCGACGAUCCACUAAGGGCUUCCACCACUGCUUCCAUGCAACCUCACGCCUGGCUCCUGCUUUGGAUCUAACAGCUGAGUCCAGACAGGCUCCCCACAGGUCACCCUUGCACGGGUUUGUGGAAUUCUCGGGUGCCAA	1
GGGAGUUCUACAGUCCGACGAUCGUUCCCCCGCCGCUUUUCUCCUCUUUCCUCUCUUUGUUCUCAGCUCCCCCUGUCCCCUCAGCUCCAGACGUAGGGGAGGGGUUGCCACAGGCCUCCCUGUUUGAAGCCUGUGGAAUUCUCGGGUGCCAA	1.19
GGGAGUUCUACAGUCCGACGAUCUUCCUGGCUGGCACCUGGUGUUGAUUCGCGGAGUUUGGGGACAGAUUCUAUUUCCCCACACCUGUUCCUUUUCUCGGUUUGCUGAGGGCCUCUUGGAUCCACUGGCCCAGUGGAAUUCUCGGGUGCCAA	0.476
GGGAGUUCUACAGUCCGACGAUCAUGGGAGAGCUCUGGCAGAUGUCCCAAUCCUGGAGGUCAUCCAUUAGGAAUUAAAUUCUCCAGCCUCACUCUCGGCUCUUUCCUACUUGUUAGUAGUCUUGGGAUGGUGGUGGAAUUCUCGGGUGCCAA	0.328
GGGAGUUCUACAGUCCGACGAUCCCCAGGCUAUUACAGGCAUAUUAUGGACAAAUAUAAAGGCCAACUAGUGAUCCCAGCCCAAGAGGUUCAGGGAAGUCUUAUGAAGGAUUUGUCUCAGCUGAGCCUGACAGUGGAAUUCUCGGGUGCCAA	0.404
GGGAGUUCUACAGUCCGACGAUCGUAGAAGACUUUCUGUUGAACUACUUAUAAGAAAGUAAAAUAAAUAUUGUCUUUUUGUAUGUCACCCAAAUGCUUUUUUUUUUGGUCUUAUUUUUUGGGGAAGCGUUGUGUGGAAUUCUCGGGUGCCAA	1.28
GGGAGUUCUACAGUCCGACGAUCCCCCCAAAGUGCCUGACUUUAGUGAACCUAGAGGUGAUGUGAGUAAUCCGCGCUGUUCUUUGCAGCAGUGCUUCCAAGCUUUUUUUGGUGAGCCGAAUGGGCAUGGCUGCUGGAAUUCUCGGGUGCCAA	0.333
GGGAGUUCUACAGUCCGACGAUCCAAAAGCACUAUAUGGACUGGUAAUGGUUACAGGUUCAGAGAUUACCCAGUGAGGCCUUAUUCCUCCCUUCCCCCCAAAACUGACACCUUUGUUAGCCACCUCCCCACCCUGGAAUUCUCGGGUGCCAA	0.763
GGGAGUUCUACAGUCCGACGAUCGGUGAAUCACCUGGCUGAGCAGUUCCCCUGGAGCCCCUUCGGGAGCAGGGCUGUGUCCCAGAUGGGCCACGGCUGAGCCUUCAGAGUACGUCCUGCCUGGCACUUACUGGUGGAAUUCUCGGGUGCCAA	0.242
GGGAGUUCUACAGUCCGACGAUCUCUGUCUCAUGUUCGUGCAGAUUAUUACAGACACCUCUUUCCUUUAGCCAGAGAAUGGUUCAAAUGUCUUACAGAACUAAGAUCUUUUUCAGAGAAAUUGCUCACAAAAGUGGAAUUCUCGGGUGCCAA	0.385
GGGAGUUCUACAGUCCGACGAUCGACAGAGACUUGACUUGAUCCUCUGAGCUCAAGCUAUUGAGCUGGUAGUGGCAGAGGACUGAGGGUACCUGCACAGUUUGAUUCUUUUCCACGUGUAAGUCUCCAUUGCAUGGAAUUCUCGGGUGCCAA	2.36

Set 3
Target: Sal-like protein 4, full length isoform B (SALL4, Homo sapiens, UniProt Q9UJQ4-2, residues 1-616)
Method: universal PBM
Form: double-stranded DNA, one strand shown
Medium: in vitro
Concentration: not given
Setting: 8-mer, flanks averaged, mean of replicates
Reading: higher = stronger binding
Strand	E-score
AGATACCG	0.0716
CCCTCTAC	-0.205
CAGAAACC	-0.161
AGTATCGG	0.0346
ATATAGGG	0.0999
GTCATTAA	0.188
AAGATGCA	0.136
AGAGTCCG	-0.108
CGTGGCAC	-0.247
GGGTACCA	-0.247
ATAATCGA	0.251
AGAGGACG	-0.115
CCCGGAAG	-0.323
GCGGCACA	-0.141
AAACGAAG	0.0781
AGGGCAAC	-0.15
CGCTCGCC	-0.311
AATGACAA	0.235
CAGCTAGC	-0.26
GGTCGAAA	-0.0292
AGGGAACA	-0.0332
AGGAGTGG	-0.087
GATGCGCA	-0.0852
CGGCTAAC	-0.124

Set 4
Target: Histone acetyltransferase KAT6A, both winged helices, GST fusion (KAT6A, Homo sapiens, UniProt Q92794, residues 1-181)
Method: protein binding microarray
Form: double-stranded DNA, one strand shown
Medium: in vitro
Concentration: not given
Setting: 8-mer, flanks averaged, mean of 2 arrays, mostly near background
Baseline: not given
Reading: higher = stronger binding
Construct (chain): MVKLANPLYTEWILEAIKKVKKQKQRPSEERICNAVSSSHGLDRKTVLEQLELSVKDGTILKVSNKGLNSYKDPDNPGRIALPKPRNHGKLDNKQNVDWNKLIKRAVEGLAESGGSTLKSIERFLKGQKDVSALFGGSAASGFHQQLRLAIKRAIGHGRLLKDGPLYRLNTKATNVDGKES
Strand	E-score
GTTCGCCA	-0.0123
ATGGCGCA	0.209
CGTTCAAA	0.0804
ACCATTGA	-0.118
CGCTTCCA	0.086
AGCAGACT	-0.186
GGAGCTTA	-0.0641
ACATTTGG	-0.0517
AGGAGCGA	-0.00466
TATCAAAA	-0.049
GACAAGCC	0.0835
AGAATGAG	-0.24
ATCATTTA	-0.0109
GATGACAC	-0.0281
AGCTCCGG	0.0014
ATCGCGAG	0.199
GGAAATTA	-0.051

Set 5
Substance: RNF26 RING domain (UniProt Q9BY78)
Chain of UniProt Q9BY78 (whole entry, looked up): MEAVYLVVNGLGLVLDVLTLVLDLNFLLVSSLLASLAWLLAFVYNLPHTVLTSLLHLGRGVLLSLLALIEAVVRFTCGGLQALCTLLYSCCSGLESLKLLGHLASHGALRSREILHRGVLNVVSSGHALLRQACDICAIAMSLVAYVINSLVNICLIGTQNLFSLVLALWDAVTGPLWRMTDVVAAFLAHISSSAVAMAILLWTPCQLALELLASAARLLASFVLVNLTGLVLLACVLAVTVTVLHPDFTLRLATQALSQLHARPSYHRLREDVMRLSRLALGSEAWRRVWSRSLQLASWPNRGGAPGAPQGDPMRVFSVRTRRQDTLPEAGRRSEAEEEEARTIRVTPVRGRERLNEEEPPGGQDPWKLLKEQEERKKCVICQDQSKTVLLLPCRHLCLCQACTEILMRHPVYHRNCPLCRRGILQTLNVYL
Method: yeast two-hybrid
Medium: yeast
Setting: mostly zero background
Baseline: not given
Reading: higher = stronger interaction
target	lacZ reporter activity
UBE2E1 UBC core domain (UniProt P51965)	2840
UBE2E2 UBC core domain (UniProt Q96LR5)	0
UBE2H UBC core domain (UniProt P62256)	0
UBE2L6 UBC core domain (UniProt O14933)	0
UBE2Q2 UBC core domain (UniProt Q8WVN8)	0
UBE2V2 UBC core domain (UniProt Q15819)	0
CDC34 UBC core domain (UniProt P49427)	0
UBE2G2 UBC core domain (UniProt P60604)	9780
UBE2N UBC core domain (UniProt P61088)	9020
UBE2V1 UBC core domain (UniProt Q13404)	0
UBE2U UBC core domain (UniProt Q5VVX9)	11700
